Assay results collected from several papers.
Every numbered part comes from another study and shows a few of its results, in no order. Substitutions count along the parent as printed.

Set 1
Target: JUN, bZIP domain (human)
Technique: DHFR protein complementation
Medium: yeast
Setting: single substitutions, most at no-binding floor
Relative to: wild-type JUN-FOS pair
Direction: higher = stronger binding
Quantity: binding fitness
Parent: JUN, bZIP domain (human); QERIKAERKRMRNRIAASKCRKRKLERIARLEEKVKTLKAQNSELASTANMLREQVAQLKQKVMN
Variant = V35Q; result = -1.26 natural log
Variant = L31H; result = -1.45 natural log
Variant = Q41F; result = -1.26 natural log
Variant = L31R; result = -1.35 natural log
Variant = V35N; result = -1.45 natural log

Set 2
Target: RING finger protein unkempt homolog, zinc fingers 1-6, GST-SBP tag (UNK, Homo sapiens, UniProt Q9C0B0, residues 30-357)
Technique: RNA Bind-n-Seq
Form: RNA
Medium: in vitro
Concentration: not given
Setting: RNA with constant flanks, human and mouse sites, ends assumed
Relative to: input RNA pool
Direction: higher = stronger binding
Quantity: bound/input enrichment
Constant ends, left off below: GGGAGUUCUACAGUCCGACGAUC … CAACAGAGGAUUGAGCAUCA
Construct (chain): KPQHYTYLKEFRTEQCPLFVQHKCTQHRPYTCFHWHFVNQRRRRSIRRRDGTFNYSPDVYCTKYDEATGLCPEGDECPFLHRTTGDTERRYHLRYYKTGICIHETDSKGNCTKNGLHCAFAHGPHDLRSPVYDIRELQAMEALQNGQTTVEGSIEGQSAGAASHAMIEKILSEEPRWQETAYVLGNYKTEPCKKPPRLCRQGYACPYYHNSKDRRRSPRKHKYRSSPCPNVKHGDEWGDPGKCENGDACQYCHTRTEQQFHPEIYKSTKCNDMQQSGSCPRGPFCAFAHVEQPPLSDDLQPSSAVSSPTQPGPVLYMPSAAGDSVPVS
Strand = ACGUCAGUGGUCAUUAGCUCCUGCUCUCUGGCUGAAGCCCGCCUCCUGCUAGACAACUUCCUCAAGGCGUCCAUUGACAAGGGACUUCAAGUAGCACAGAAGGAAGCCCAGAUCCGGCUG; result = 0.147 ratio
Strand = GGGGUCGGGGCGGUGCGGGUGUGCGCGCGCCGACCUCUGGCGCGUUCUAACCCGCGCGCCUGCCUUCCCGGGCUUCGUCGGCGCGCACCGAUUUCCGCAUCCGGCUCCGGACGCUUCCGG; result = 0.071 ratio
Strand = CCAGUAUGUGUGUGCAUUAGUCACAUUCCUCUCUGUUCUGUUGAAGGAAAAAGAGACAUUUUAACCCUUUUAAGGUUGACUUUAUUUUAUGUUAUUUGGUUGCAUGAAGUUGCCCUUAAU; result = 0.174 ratio
Strand = AAGAAAAUAGUGGUGUGAUUUGGGGAUAUUUUUUUCUUUUCUUUUCUUUUCUUUUUUUUUUUUUUUGACAAGGGGCAGUGGUGGUUUUCUGUUCUUUCUGGCUAUGCAUUUGAAAAUUUU; result = 1.05 ratio
Strand = AAGUCUUCUACCAUUACUGUAGACCAAAUGAAAAGAGGUUAUGAGAGAAUUUACAAUGAAAUUCCGGACAUUAAUCUGGAUGUCCCACAUUCAUACUCUGUGCUGGAGCGGUUUGUAGAA; result = 0.628 ratio
Strand = CAAUUAUCCUUGAAGUUUGAAAGGUGUUUAGAUUCAGAAGUUGUCACCUUUGAAAUUUUGUCUGAUGACUACUCAAAGAUUGUCUUCUUACAUAAUGAUAGAUACAUUGAAUUUCAUUCG; result = 0.248 ratio
Strand = GCCCUCAGGAAGUUGAUUAAAACCUGCAGUGCAACAGUUUUAGAUACUGAUUAGUGACUUCAAAGGGAAAUCAAGGAAAGACCAGUUUGCAUUUAUGCGAAAUCUGUGGUUGUAAAUUUU; result = 0.398 ratio
Strand = GGUCCACAUACUCCCCAUCGGGUGCCUGGACCUUGGGGUUCCCCCGAACCUUUUCUGCUCUAUAGGCCAGCUCCACCAUCCUAUGGGAGGGGAGGGGAGGUCCGAGGAUCCUUGUACAGA; result = 0.107 ratio

Set 3
Target: Interferon regulatory factor 5, full length, phosphomimetic (IRF5, Homo sapiens, UniProt Q13568-2, residues 1-514, K96S/S451D/S453D/S456D/S462D)
Technique: protein-binding microarray
Form: double-stranded DNA, one strand shown
Medium: in vitro
Concentration: 250 nM
Setting: 60-bp whole probe
Together with: salmon DNA 0.4 mg/ml
Relative to: random background probes
Direction: higher = stronger binding
Quantity: log fluorescence
Constant ends, left off below: GCCTAGCAC … GTCTTGATTCGCTTGACGCTGCTG
Strand = TTAGATATCAGTCTCGATTGGTGCTAG; result = 1.87 z-score
Strand = TTAGATCTCAGACTGGTTTAGTGCTAG; result = -0.138 z-score
Strand = CTAGTTTTTACTTTCTGAATGTGCTAG; result = 3.68 z-score
Strand = GGATGACTCCCTCTCTGGCCGTGCTAG; result = -0.376 z-score
Strand = GACGGTTCCGGGTTCGGGACGTGCTAG; result = 0.0935 z-score
Strand = TTAGATATCAGTTTCGATCAGTGCTAG; result = 9.95 z-score
Strand = GACGGTTGCGGTCTCGGGACGTGCTAG; result = 0.486 z-score
Strand = GACGGTATGGGGTTTCGGGACGTGCTA; result = 1.22 z-score
Strand = GACGATAGCAGACTGGAGACGTGCTAG; result = 0.495 z-score
Strand = TGAAATTTTAGTAACACAGAGTGCTAG; result = 1.01 z-score
Strand = TTAGGACTGCTTTTCCATTAGTGCTAG; result = -0.116 z-score
Strand = TTAGGTTTCGGGTTCGGTTAGTGCTAG; result = 8.21 z-score
Strand = GACGGACTGGGACTGGGGCCGTGCTAG; result = -0.645 z-score
Strand = TTAGGACTTGACTATCGGTTAGTGCTA; result = 6.73 z-score
Strand = TCAATTCCCTTTCTCAAACTGTGCTAG; result = 0.908 z-score
Strand = GACGATTTCAAACTGGAGACGTGCTAG; result = -0.0833 z-score

Set 4
Target: ABI1, truncated, D143A, DHFR fusion (Arabidopsis thaliana)
Technique: DHFR PCA, deep sequencing
Medium: yeast
Setting: methotrexate growth selection, single substitutions
Together with: (+)-ABA 1.4 µM
Relative to: wild-type fitted maximum
Direction: higher = stronger binding
Quantity: relative binding score
Parent: PYL1, truncated, DHFR fusion (Arabidopsis thaliana); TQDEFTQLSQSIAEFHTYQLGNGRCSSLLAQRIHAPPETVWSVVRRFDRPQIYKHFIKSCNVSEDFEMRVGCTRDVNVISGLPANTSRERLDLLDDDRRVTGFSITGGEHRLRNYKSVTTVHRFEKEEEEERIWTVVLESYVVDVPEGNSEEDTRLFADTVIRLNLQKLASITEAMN
Variant = G21S; result = 51.3%
Variant = E152S; result = 37.5%
Variant = V40Q; result = -6.87%
Variant = N22T; result = 63.4%
Variant = L93A; result = 22.3%
Variant = G148I; result = -24.8%
Variant = G71D; result = -1.13%
Variant = G23K; result = 37.3%
Variant = E38C; result = 26%
Variant = P36K; result = 40.5%
Variant = L28N; result = -5.74%
Variant = E130K; result = 79.4%
Variant = R32A; result = 49.6%
Variant = I162Q; result = 7.02%
Variant = L138N; result = 7.78%
Variant = D95K; result = 1.81%

Set 5
Target: Protein C-ets-1 (ETS1, Homo sapiens, UniProt P14921, residues 1-441, K379A, full length assumed)
Chain of UniProt P14921 (whole entry, unmodified, looked up): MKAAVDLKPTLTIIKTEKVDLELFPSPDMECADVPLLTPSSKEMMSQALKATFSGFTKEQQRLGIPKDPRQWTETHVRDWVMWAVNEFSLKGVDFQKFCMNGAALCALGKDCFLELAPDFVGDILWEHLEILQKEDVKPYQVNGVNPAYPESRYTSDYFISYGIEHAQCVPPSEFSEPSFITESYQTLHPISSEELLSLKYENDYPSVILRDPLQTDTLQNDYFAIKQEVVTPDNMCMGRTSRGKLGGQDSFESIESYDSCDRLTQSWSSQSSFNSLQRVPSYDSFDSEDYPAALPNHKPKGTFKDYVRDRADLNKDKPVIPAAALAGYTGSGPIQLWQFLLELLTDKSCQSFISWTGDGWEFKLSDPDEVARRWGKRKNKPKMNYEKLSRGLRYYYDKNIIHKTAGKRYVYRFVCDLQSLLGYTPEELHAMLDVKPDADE
Technique: protein-binding microarray
Form: double-stranded DNA, one strand shown
Medium: in vitro
Concentration: not given
Setting: k-mer, scored over probes, only values ≥0.25
Direction: higher = stronger binding
Quantity: E-score
Strand = ACCGACGC; result = 0.268
Strand = AAGATACC; result = 0.256
Strand = GTACCGTA; result = 0.253
Strand = GTCGGTAA; result = 0.337
Strand = GTCACTCA; result = 0.268
Strand = GATGTAAC; result = 0.254
Strand = ACCGGATG; result = 0.437
Strand = CCGGTCAC; result = 0.322
Strand = CTTCCGCC; result = 0.313
Strand = TATCCGGA; result = 0.362
Strand = AGGGGCGG; result = 0.38
Strand = CGTCGTTC; result = 0.33
Strand = GACCGGTA; result = 0.426
Strand = AAACCGGA; result = 0.398
Strand = AATCCCGG; result = 0.396
Strand = CGGTCATC; result = 0.268
Strand = CGTACGAC; result = 0.274
Strand = ATAACATG; result = 0.271
Strand = CAAACACA; result = 0.28
Strand = ACCGCCAA; result = 0.274

Repeated from above (set 3):
Strand = CTAGTTTTTACTTTCTGAATGTGCTAG; result = 3.68 z-score
Strand = GGATGACTCCCTCTCTGGCCGTGCTAG; result = -0.376 z-score
Strand = GACGGTTCCGGGTTCGGGACGTGCTAG; result = 0.0935 z-score
Strand = TTAGATATCAGTTTCGATCAGTGCTAG; result = 9.95 z-score
Strand = GACGGTTGCGGTCTCGGGACGTGCTAG; result = 0.486 z-score
Strand = GACGGTATGGGGTTTCGGGACGTGCTA; result = 1.22 z-score
Strand = GACGATAGCAGACTGGAGACGTGCTAG; result = 0.495 z-score
Strand = TGAAATTTTAGTAACACAGAGTGCTAG; result = 1.01 z-score
Strand = TTAGGACTGCTTTTCCATTAGTGCTAG; result = -0.116 z-score
